Results from different studies.
Every numbered part comes from another study and shows a few of its results, in no order.

Sample 1
Target: Replicase polyprotein 1ab, 3C-like proteinase (rep, Middle East respiratory syndrome-related coronavirus, UniProt K9N7C7)
Effect on: enzyme activity
Tested at: 10 µM
Quantity: inhibition
O=[N+]([O-])c1ccc(O)c2ncccc12: 7%
CC(C)N(CCC(=O)c1ccc2ccccc2c1)Cc1ccccc1: 61.5%
O=C1C2CC=CCC2C(=O)N1SC(Cl)(Cl)Cl (centres unmarked): 5%
O=C1c2c(O)cc(O)cc2O[C@H](c2cc(O)c(O)c(O)c2)[C@H]1O: 18%
CNC(=O)ON(C(C)=O)C(=O)NC: 8%

Sample 2
Target: RING finger protein unkempt homolog, zinc fingers 1-6, GST-SBP tag (UNK, Homo sapiens, UniProt Q9C0B0, residues 30-357)
Technique: RNA Bind-n-Seq
Form: RNA
Matrix: in vitro
Tested at: not given
Notes: RNA with constant flanks, ends assumed
Baseline: input RNA pool
Direction: higher = stronger binding
Quantity: bound/input enrichment
All sequences stand within: GGGAGUUCUACAGUCCGACGAUC … CAACAGAGGAUUGAGCAUCA
Target sequence (chain): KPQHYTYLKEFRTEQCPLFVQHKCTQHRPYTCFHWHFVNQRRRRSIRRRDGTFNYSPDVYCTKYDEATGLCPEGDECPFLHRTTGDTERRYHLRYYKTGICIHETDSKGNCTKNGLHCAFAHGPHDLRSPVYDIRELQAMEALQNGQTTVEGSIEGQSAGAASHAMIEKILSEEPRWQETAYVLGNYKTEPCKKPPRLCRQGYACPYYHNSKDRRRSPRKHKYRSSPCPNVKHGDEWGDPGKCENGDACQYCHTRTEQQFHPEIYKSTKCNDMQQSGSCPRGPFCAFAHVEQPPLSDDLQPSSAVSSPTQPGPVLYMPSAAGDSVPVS
AUAUUAAACUGGUAUUUUCAAACAAUAGGAAACUUUUUUUUUUUUUUUUUUUUUUUACAGUUCCGUGUAUCUGGUUUCUACAUGGAAGACUAAACUCAUGCUUAUUGCUAAAUGUGGUCU: 29.3 ratio
UAUAGUGUAAUAUAUAUAUAAUAGCUCUAAUUAUAAAUACACUUUUACUCUGGAAAAAGCACCGACAUUGACAUAAGAGACAUUUAAAAACCAUUAUUUUCUCAUCUGUAAAAUGGAGAG: 1.42 ratio
AGCAGUCAGCCCGCGCGCCGGCCGGCUCCGUUAUGGCGACCCGCAGCCCUGGCGUCGUGAUCCGUGAUGAUGAACCAGGUUAUGACCUUGAUUUAUUUUGCAUACCUAAUCAUUAUGCUG: 0.0995 ratio
CAGAUUGGGAAAAUGAGGUACGUUAGUGUUCGCGAUUUUAAAGGCAAAGUGCUAAUUGAUAUCCGAGAAUAUUGGAUGGAUCCUGAAGGUGAAAUGAAACCAGGAAGAAAAGGUAUUUCU: 0.151 ratio
GGCGCGCGGAGGGGAAAUGGCUGCCGAAAACAAGCCGGAAGAUGAUCAUGGGAACAGCAACCGCCGUCAUGUAAAAAUCUUUUUACCGAAAAAGCUGCUUGAAUGUCUGCCGAAAUGUUC: 0.129 ratio
GACAGCGGAGAAGAGGUGGAUUUGGUUAAGGAAGCAGAUGUUCCCUCAGCUAUUAGCCUUCUCCGAUUUUUUCUUCAAGAACUUCCUGAACCUGUUAUCCCUGGCAGUUUACAUAUUCAC: 0.159 ratio
GUUACUAUUUCUACAUGUUGUCCAUGAUGUGACUUUCGUAAACCUUCAAAAUUAUUUGGGCACCGUGCUCUAUGUUUAAUAAAGGUUUUUAUAGAUGUUUUAUUCCAUAUGUCUUCACAA: 0.193 ratio
AAAGUCUCCAAUUUGGUUUUCAACCUUAUCUACAAGGUUGAAGAAUUCACUGUGUUUUUCCCGGUUUCAGAGCCACUUGAUGUCUGCUACAAUGAGCUUGUGCAGUAGGUGCUAUAGAUC: 0.374 ratio

Sample 3
Target: Replicase polyprotein 1ab, polymerase (rep, Severe acute respiratory syndrome coronavirus 2, UniProt P0DTD1)
Effect on: enzyme activity
Action: inhibitor
Tested at: 20 µM
Quantity: inhibition
CC(=O)C(=O)O: 1.12%
COc1ccc(C(=O)c2ccc(C)cc2)c(O)c1: 5.71%
CO[C@H]1CC[C@H](N(c2cc(C3=CCCCC3)sc2C(=O)O)C(=O)[C@H]2CC[C@H](C)CC2)CC1: 1.47%
CN1CCc2cccc3c2[C@H]1Cc1ccc(O)c(O)c1-3: -1.32%
CC(C)NCC(O)COc1ccc(COCCOC(C)C)cc1 (centres unmarked): -3.64%
O=C(Nc1ncc(SCCN2CCCC2)s1)[C@]1(c2ccc(S(=O)(=O)C3CC3)cc2)C[C@H]1C1CCCCC1: -2.07%
CCCN1C[C@H](NS(=O)(=O)N(CC)CC)C[C@H]2Cc3c(O)cccc3C[C@@H]21: -8.43%
Cc1c(C)c2c(c(C)c1O)CCC(C)(COc1ccc(CC3SC(=O)NC3=O)cc1)O2 (centres unmarked): -3.5%
CNC(=O)c1cc(Oc2ccc(NC(=O)Nc3cc(C(C)(C)C)nn3-c3ccc4ncccc4c3)c(F)c2)ccn1: -0.42%
CCOC(=O)c1c(/C(C#N)=C\N)c2ccc(Cl)c(Cl)c2n1C: -0.65%
CS(=O)(=O)c1ccc([C@@H](O)[C@@H](CO)NC(=O)C(Cl)Cl)cc1: -1.7%
CC(=O)Nc1nc2c(Oc3cc(-c4ccc(C(F)(F)F)cc4)ncn3)cccc2s1: 8.6%
CC(=O)OCC(=O)[C@H]1CC[C@H]2[C@@H]3CCC4=CC(=O)CC[C@]4(C)[C@H]3CC[C@]12C: -2.04%
Oc1ccc(-c2nc3cc(O)cc(Br)c3o2)cc1: 1.49%
O=C(O)C(F)(F)C(F)(F)C(F)(F)C(F)(F)C(F)(F)C(F)(F)C(F)(F)F: -1.37%
O=c1[nH]c(=O)n([C@H]2C[C@H](O)[C@@H](CO)O2)cc1I: -3.66%
CC(=O)c1cc([N+](=O)[O-])c(Sc2cccc(Cl)c2Cl)s1: -2.9%
O=C1CC[C@@H](C(=O)N2CSC[C@H]2C(=O)O)N1: 1.31%
CCOC(=O)Nc1ccc(NCc2ccc(F)cc2)cc1N: -6.21%
COc1cc2c(cc1O)C(CCc1ccc(Cl)cc1)N(C)CC2 (centres unmarked): 4.61%
CC(C)C[C@@H]1NC(=O)[C@@H](C(C)C)NC(=O)[C@@H]2CCCN2C(=O)[C@@H](CC(=O)O)NC(=O)[C@@H](Cc2c[nH]c3ccccc23)NC1=O: -1.65%
Cc1ccc(S(=O)(=O)NC(=O)NN2CCCCCC2)cc1: 21.9%
c1ccc(CNCc2ccc(CN3CCCNCCNCCCNCC3)cc2)nc1: 1.21%
CCN(CC)Cc1ccc2cc(COC(=O)Nc3ccc(C(=O)NO)cc3)ccc2c1: -0.24%
N[C@@H](CCC(=O)N[C@@H](CS)C(=O)NCC(=O)O)C(=O)O: -0.86%

Sample 4
Cell line: HEK-293T/ACE2
Tested at: 10 µM
Time: 16 h
Baseline: vehicle
Quantity: viability
NS(=O)(=O)c1cc2c(cc1Cl)NCNS2(=O)=O: 102%
CCN(CC)C(=O)/C(C#N)=C/c1cc(O)c(O)c([N+](=O)[O-])c1: 102%
Cn1c(=O)c2c(ncn2CC(O)CO)n(C)c1=O (centres unmarked): 100%
CC(=O)N(CC(O)CO)c1c(I)c(C(=O)NCC(O)CO)c(I)c(C(=O)NCC(O)CO)c1I (centres unmarked): 102%

Sample 5
Target: RNA binding protein fox-1 homolog 2, RRM domain, GST-SBP tag (RBFOX2, Homo sapiens, UniProt O43251-10, residues 100-194)
Technique: RNA Bind-n-Seq
Form: RNA
Matrix: in vitro
Tested at: 365 nM
Notes: natural RNA segment, single round, ends assumed
Baseline: no-protein control
Direction: higher = stronger binding
Quantity: RBNS enrichment (R)
All sequences stand within: GGGAGUUCUACAGUCCGACGAUC … UGGAAUUCUCGGGUGCCAA
ACAAGUAGAAUAGCCAAUUAUUUAAAUGUUUAGUUGCCACAGUGAACCAGGAGUCACUGAGCCAAUGACUUUACCAGCUGCUGACUAAUCUUCAUCACCACUGUAGAUUU: 0.536
UCUCCCAUCUUUUCUCUCUGUUCUCAGCUCCCCUGUCCCCUCCCUCGGCUCUAGACUUGGGGGAGGGGUUGCCACAGGCCUCCCAGUCUAAAACCCACCUUUGUCUGAGG: 0.635
GGUAAAAAUGAGACUCAAGAGGCAUCACUGGCCAUUGUACCAGAUUAUUCCUGCUCGCCAGUGAGAGGCGUUUAAGUCGCGCUGUGCAUCGUACCUUCAGUUUAGGCUGU: 1
AAUGCCUACAGCUGUCUUCACAUGUAUGGACGUGUGUGAAUGGUUGUACGUUUUGCACAUUUUGUGGCUGUUGAGAUGUGCUUUGCUGCACAAACAUGAAAAUUUUUGAG: 0.611
CAGAUAGGCUCCGGGGAAGUCCAUUCCAGCUGCCACCGGCAGACAGGAGGAUAGUUGUUCUGUCUUGGGAGACGGUUUCCAAAAACUCCGAGAGACUUUCUGCUAAUGGU: 0.402
AGCUGGACAGCGGCAGUGGGCCUGCUGAGGCCUUCUCUUGAGGCCUGUGCUCUGGGGGUCCCUUGCUUAGCCUGUGCUGGACCAGCUGGCCUGGGGUCCCUCUGAAGAGA: 8.63
CAGCCUCCAGCUGCACUGGGAGACGUAGGGAGGGAAGCAGGGUCCACAGCCAUUCCCUCAUGAGAGGUGGCUCUCAUGGCAUCUUGCAAUGUUUGUCUUGUUUUGUUCAU: 5.82
CUCCUAACUAGCAUGCAACCCUUGGCUUGUUUACUAACCCAAAAGGGCUAAGGCACAGUAUUUGAAACCAUUAAAUGUGUUCUUUGGAGAAGUCUGGUUAACAUCCAUCA: 8.05

Some of these lines once more (sample 3):
COc1ccc(C(=O)c2ccc(C)cc2)c(O)c1: 5.71%
CC(C)NCC(O)COc1ccc(COCCOC(C)C)cc1 (centres unmarked): -3.64%
CC(=O)c1cc([N+](=O)[O-])c(Sc2cccc(Cl)c2Cl)s1: -2.9%
O=C(O)C(F)(F)C(F)(F)C(F)(F)C(F)(F)C(F)(F)C(F)(F)C(F)(F)F: -1.37%
Oc1ccc(-c2nc3cc(O)cc(Br)c3o2)cc1: 1.49%
CS(=O)(=O)c1ccc([C@@H](O)[C@@H](CO)NC(=O)C(Cl)Cl)cc1: -1.7%
N[C@@H](CCC(=O)N[C@@H](CS)C(=O)NCC(=O)O)C(=O)O: -0.86%
O=C1CC[C@@H](C(=O)N2CSC[C@H]2C(=O)O)N1: 1.31%
